Assay results from different studies.
Each line is one published result; not all experiments were run side by side. Several values in a cell are separate wells, animals, samples, runs or records. ± gives the spread as reported.

SMILES	assay	system	setting	tissue uptake
O=C(NCC1OC2CCC=CCCC2O1)c1ccc([18F])nc1 (stereo not shown)		healthy female BALB/c nude mice, heart	intravenous, 7.4 MBq per mouse, 60 min	1.2 ± 0.1 %ID/g
CCCC[C@H](NC(=O)CNC(=O)CNC(=O)[C@H](CCCCNC(=O)[C@H](CC(=O)O)NC(=O)C(C)c1ccc(CC(C)C)cc1)NC(=O)CN1CCN(CC(=O)O)CCN(CC(=O)O)CCN(CC(=O)O)CC1)C(=O)N[C@H]1CC(=O)NCCCC[C@@H](C(N)=O)NC(=O)[C@H](Cc2c[nH]c3ccccc23)NC(=O)[C@H](CCCNC(=N)N)NC(=O)[C@@H](Cc2ccccc2)NC(=O)[C@H](Cc2c[nH]cn2)NC1=O (stereo partly shown) [lutetium-177 labelled]		C57 mice, tumour-bearing, heart	intravenous, 0.037 MBq, 24 h	0.26 ± 0.04 %ID/g
CC(C)C[C@H](NC(=O)[C@@H](CCCCNC(=O)[C@@H](Cc1ccccc1)NC(=O)CCCCCCCNC(=O)CN1CCN(CC(=O)O)CCN(CC(=O)O)CCN(CC(=O)O)CC1)NC(=O)[C@H](Cc1ccc(O)cc1)NC(=O)[C@H](CO)NC(=O)[C@H](Cc1c[nH]c2ccccc12)NC(=O)[C@H](Cc1c[nH]cn1)NC(=O)[C@@H]1CCC(=O)N1)C(=O)N[C@@H](CCCNC(=N)N)C(=O)N1CCC[C@H]1C(=O)NCC(N)=O [indium-111 labelled]	biodistribution	male athymic nude mice, DU-145 prostate cancer xenograft, heart	intravenous, 0.037 MBq, 1 h post-injection	0.2 ± 0.11 %ID/g
Cc1cc(C)n(CCN(CCN)CCCCCCNC(=O)[C@@H](N)Cc2c[nH]cn2)n1.[99Tc+].[C-]#[O+].[C-]#[O+].[C-]#[O+]		BALB/c nude mice, A549 xenograft, spleen	intravenous, 24 h	0.31 ± 0.08 %IA/g
O=C(NCC1OC2CCC=CCCC2O1)c1ccc(COCCOCCOCC[18F])cc1 (stereo not shown)		healthy female BALB/c nude mice, small intestine	intravenous, 7.4 MBq per mouse, 60 min	7.8 ± 3.8 %ID/g
CCCC[C@H](NC(=O)CNC(=O)CNC(=O)[C@H](CCCCNC(=O)[C@H](CC(N)=O)NC(=O)C(C)c1ccc(CC(C)C)cc1)NC(=O)CN1CCN(CC(=O)O)CCN(CC(=O)O)CCN(CC(=O)O)CC1)C(=O)N[C@H]1CC(=O)NCCCC[C@@H](C(N)=O)NC(=O)[C@H](Cc2c[nH]c3ccccc23)NC(=O)[C@H](CCCNC(=N)N)NC(=O)[C@@H](Cc2ccccc2)NC(=O)[C@H](Cc2c[nH]cn2)NC1=O (stereo partly shown) [lutetium-177 labelled]		C57 mice, tumour-bearing, lung	2 h	1.44 ± 0.75 %ID/g
COc1ccc2c(c1)C(C)(C)C(/C=C/C1=C(Oc3ccc(C(=O)NCCCCOc4cc(CN(Cc5ccccn5)Cc5ccccn5)cc(CN(Cc5ccccn5)Cc5ccccn5)c4)cc3)C(=C/C=C3/N(CCCCS(=O)(=O)[O-])c4ccc(OC)cc4C3(C)C)CCC1)=[N+]2CCCCS(=O)(=O)[O-].O=[N+]([O-])[O-].O=[N+]([O-])[O-].[99Tc+].[C-]#[O+].[C-]#[O+].[C-]#[O+].[Zn+2]		healthy BALB/c mice, adrenals	12 h	1.95 %ID/g and 2.14 %ID/g and 2.47 %ID/g and 2.9 %ID/g
O=C([O-])CN1CCN(CC(=O)[O-])CCN(CC(=O)NC[C@H]2CC[C@H](C(=O)N[C@H](Cc3cnc4ccccc4c3)C(=O)NCCCC[C@H](NC(=O)N[C@@H](CCC(=O)O)C(=O)O)C(=O)O)CC2)CCN(CC(=O)[O-])CC1.[64Cu+2]	ex vivo gamma counting	22Rv1 tumour-bearing mice, liver	intravenous, 0.74 MBq, 6 h post-injection	25.2 %ID/g
CCCC[C@H](NC(=O)COCCOCCNC(=O)CN1CCN(CC(=O)O)CCN(CC(=O)O)CC1)C(=O)N[C@H]1CC(=O)NCCCC[C@@H](C(N)=O)NC(=O)[C@H](Cc2c[nH]c3ccccc23)NC(=O)[C@H](CCCNC(=N)N)NC(=O)[C@@H](Cc2ccccc2)NC(=O)[C@H](Cc2c[nH]cn2)NC1=O [fluorine-18 labelled]		C57 mice B16-F10 melanoma, heart	intravenous, 0.37 MBq, 2 h	0.05 ± 0.1 %ID/g
COc1ccc(Nc2nc(Nc3ccc(OCCOCCOCC[18F])cc3)ncc2Br)cc1		ICR mice, S180 tumour, intestine	intravenous, 370 kBq, 60 min	4.78 ± 0.02 %ID
Cc1cc(C)n(CCN(CCN)CCCCCCNC(=O)[C@@H](N)Cc2c[nH]c3ccccc23)n1.[99Tc+].[C-]#[O+].[C-]#[O+].[C-]#[O+]		BALB/c nude mice, A549 xenograft, brain	intravenous, 4 h	0.06 ± 0.01 %IA/g
N#C[C@@H]1CCCN1C(=O)CNC(=O)c1ccnc2ccc(OCCCN3CCN(C(=O)CCc4ccc5c(c4)CN4CCN6CC(=O)[O][68Ga-]([O]C(=O)C4)([O]5)[O]c4ccc(CCC(=O)N5CCN(CCCOc7ccc8nccc(C(=O)NCC(=O)N9CCC[C@H]9C#N)c8c7)CC5)cc4C6)CC3)cc12		BALB/c nude mice, U-87 MG xenograft, kidney	2 h	2.68 ± 1.09 %ID/g
CCCC[C@H](NC(=O)CCCCCCCNC(=O)CN1CCN(CC(=O)O)CCN(CC(=O)O)CC1)C(=O)N[C@H]1CC(=O)NCCCC[C@@H](C(N)=O)NC(=O)[C@H](Cc2c[nH]c3ccccc23)NC(=O)[C@H](CCCNC(=N)N)NC(=O)[C@@H](Cc2ccccc2)NC(=O)[C@H](Cc2c[nH]cn2)NC1=O [fluorine-18 labelled]		C57 mice B16-F10 melanoma, blood	intravenous, 0.37 MBq, 1 h	0.43 ± 0.3 %ID/g
COc1ccc(Nc2nc(Nc3ccc(OCCOCC[18F])cc3)ncc2Br)cc1		ICR mice, S180 tumour-bearing, tumor	intravenous, 370 kBq, 5 min	3.59 ± 0.36 %ID/g
N#C[C@@H]1CCCN1C(=O)CNC(=O)c1ccnc2ccc(OCCCN3CCN(C(=O)CCc4ccc(O)c(CN5CCN6CC(=O)[O][Al-]([18F])([O]C(=O)C5)[O]c5ccc(CCC(=O)N7CCN(CCCOc8ccc9nccc(C(=O)NCC(=O)N%10CCC[C@H]%10C#N)c9c8)CC7)cc5C6)c4)CC3)cc12 (stereo partly shown)		BALB/c nude mice, U-87 MG tumour, gallbladder	120 min post-injection	62 ± 32.8 %ID/g
O=C(O)CCCOc1ccc([18F])cc1-c1cc(-c2ccccc2C(F)(F)F)n(-c2ccccc2)n1		mice, bladder and urine	intravenous, 180 min	0.35 ± 0.15 %ID/g

Excerpt of the above:
SMILES	assay	system	setting	tissue uptake
CCCC[C@H](NC(=O)CNC(=O)CNC(=O)[C@H](CCCCNC(=O)[C@H](CC(=O)O)NC(=O)C(C)c1ccc(CC(C)C)cc1)NC(=O)CN1CCN(CC(=O)O)CCN(CC(=O)O)CCN(CC(=O)O)CC1)C(=O)N[C@H]1CC(=O)NCCCC[C@@H](C(N)=O)NC(=O)[C@H](Cc2c[nH]c3ccccc23)NC(=O)[C@H](CCCNC(=N)N)NC(=O)[C@@H](Cc2ccccc2)NC(=O)[C@H](Cc2c[nH]cn2)NC1=O (stereo partly shown) [lutetium-177 labelled]		C57 mice, tumour-bearing, heart	intravenous, 0.037 MBq, 24 h	0.26 ± 0.04 %ID/g
CC(C)C[C@H](NC(=O)[C@@H](CCCCNC(=O)[C@@H](Cc1ccccc1)NC(=O)CCCCCCCNC(=O)CN1CCN(CC(=O)O)CCN(CC(=O)O)CCN(CC(=O)O)CC1)NC(=O)[C@H](Cc1ccc(O)cc1)NC(=O)[C@H](CO)NC(=O)[C@H](Cc1c[nH]c2ccccc12)NC(=O)[C@H](Cc1c[nH]cn1)NC(=O)[C@@H]1CCC(=O)N1)C(=O)N[C@@H](CCCNC(=N)N)C(=O)N1CCC[C@H]1C(=O)NCC(N)=O [indium-111 labelled]	biodistribution	male athymic nude mice, DU-145 prostate cancer xenograft, heart	intravenous, 0.037 MBq, 1 h post-injection	0.2 ± 0.11 %ID/g
